Experimental data collected from several papers.
Each numbered part is a random draw from the data of one study; scales do not carry over between parts.

Block 1
Target: Sal-like protein 4, full length isoform B (SALL4, Homo sapiens, UniProt Q9UJQ4-2, residues 1-616)
Technique: universal PBM
Form: double-stranded DNA, one strand shown
Medium: in vitro
Concentration: not given
Setting: 8-mer, flanks averaged, mean of replicates
Direction: higher = stronger binding
Residues (chain): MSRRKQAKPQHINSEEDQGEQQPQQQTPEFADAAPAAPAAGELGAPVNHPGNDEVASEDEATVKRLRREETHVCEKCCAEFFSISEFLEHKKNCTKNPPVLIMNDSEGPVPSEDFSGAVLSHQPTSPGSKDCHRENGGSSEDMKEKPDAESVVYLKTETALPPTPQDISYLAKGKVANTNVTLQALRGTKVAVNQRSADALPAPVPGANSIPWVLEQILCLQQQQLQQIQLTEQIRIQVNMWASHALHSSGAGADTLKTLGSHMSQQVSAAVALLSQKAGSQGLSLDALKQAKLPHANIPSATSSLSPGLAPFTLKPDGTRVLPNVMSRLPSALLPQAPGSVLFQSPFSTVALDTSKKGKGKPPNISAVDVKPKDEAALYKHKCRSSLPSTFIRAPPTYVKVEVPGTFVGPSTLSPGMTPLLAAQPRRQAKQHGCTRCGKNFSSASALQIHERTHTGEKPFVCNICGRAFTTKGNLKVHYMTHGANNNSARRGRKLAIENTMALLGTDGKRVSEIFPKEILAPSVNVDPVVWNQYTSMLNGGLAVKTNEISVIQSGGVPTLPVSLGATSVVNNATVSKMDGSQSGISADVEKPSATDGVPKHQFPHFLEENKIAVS
With `AAGTGGAG` the E-score was 0.129.
`ACCCCAGC` has an E-score of -0.138.
The E-score of `AAACGCGC` is reported as -0.239.
The E-score of `AGAGGAAC` is reported as -0.0383.
The E-score of `CCCAGGCG` is reported as -0.325.

Block 2
Target: Histone acetyltransferase KAT6A, winged helix 1, GST fusion (KAT6A, Homo sapiens, UniProt Q92794, residues 1-85)
Technique: protein binding microarray
Form: double-stranded DNA, one strand shown
Medium: in vitro
Concentration: not given
Setting: 8-mer, flanks averaged, mean of 2 arrays, mostly near background
Baseline: not given
Direction: higher = stronger binding
Construct (chain): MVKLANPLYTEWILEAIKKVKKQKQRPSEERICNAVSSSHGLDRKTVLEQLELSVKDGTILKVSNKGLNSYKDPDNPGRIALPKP
`AGGGAGCA` has an E-score of -0.202.
`ATGATGTA` has an E-score of -0.0745.
The E-score of `GATATCTA` is reported as -0.145.
With `GTGTCAGA` the E-score was -0.141.
`ACCGATTC` gave an E-score of 0.0668.

Block 3
Target: RNA binding protein fox-1 homolog 2, RRM domain, GST-SBP tag (RBFOX2, Homo sapiens, UniProt O43251-10, residues 100-194)
Technique: RNA Bind-n-Seq
Form: RNA
Medium: in vitro
Concentration: 365 nM
Setting: natural RNA segment, single round, ends assumed
Baseline: no-protein control
Direction: higher = stronger binding
Construct (chain): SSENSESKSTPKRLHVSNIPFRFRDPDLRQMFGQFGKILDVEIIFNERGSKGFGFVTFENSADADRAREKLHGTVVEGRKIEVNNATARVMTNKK
Under “RBNS enrichment (R)”, `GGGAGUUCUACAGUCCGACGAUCUUAAAAAUGCUCUGCAUUUCUUCCAGUGCAAUGAAAUUCAUAUGGUGUCCCACCUUAUUUAAUGAUGGUACAAUUGAAAAUAUUAAAAUCUUAGUCAACCUCUGUAGAAAUGGAAUUCUCGGGUGCCAA` is recorded as 0.397.
`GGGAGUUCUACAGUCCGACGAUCUUCCACCAGCUUCUUCCCCUCUUCUCAGUCAUUACUGAGAAGGAUUGGUAUUCAAAGCAAAACUGACAGUUUUCCCCUGUGUCAGGUUUUGCCAUCCCAAUCUUAAGACUUGGAAUUCUCGGGUGCCAA`: “RBNS enrichment (R)” 0.635.
Under “RBNS enrichment (R)”, `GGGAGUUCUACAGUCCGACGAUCAUAGCUCCUGGACCCAAGCCCAAGGCCCAGCCUGGGACAAGGCUCCGAGGGUCGGCUGGCCGGAGCUAUUUUUACCUCCCGCCUCCCCUGCUGGUCCCCCCACCUGACGUUGGAAUUCUCGGGUGCCAA` is recorded as 0.499.
`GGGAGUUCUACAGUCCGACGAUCCAAGUUACAUGUGAAUUUGUUUGGUGAAGAAGGGAAGCUGGGAUGGUAACAGAGCGUCACCACAUAGGAUGUGCCAUUAUCUAGCUAAAGUCAUUCCUUCCUUCCUUCUGUGGAAUUCUCGGGUGCCAA`: “RBNS enrichment (R)” 0.35.
Under “RBNS enrichment (R)”, `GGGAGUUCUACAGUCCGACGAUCACGGGAGCCCUUCUCCCUGACCCUGGGCUGCUUCCUGGGGGCUCUCCAGACCCCUCUCUAGGACCAAGUCACCCGUCGUGCUGGGAGUGUGGAUUCUAGCAAAAGAGCUGUGGAAUUCUCGGGUGCCAA` is recorded as 0.262.

Other studies, line by line
The fold induction of `PhoQ, residues 284 288 289 292 302 303 AAQSYM` is reported as 2.83 (PhoP, residues 12 14 15 18 19 NQAHL (Escherichia coli, UniProt P23836); Sort-seq, refers to: YFP reporter; E. coli; PhoQ-PhoP variant library, added: 10 µM Mg2+; baseline: high Mg2+ state, higher = stronger signaling).

Repeated from above (block 1):
The E-score of `CCCAGGCG` is reported as -0.325.
The E-score of `AGAGGAAC` is reported as -0.0383.
